Measured values collected from several papers.
Lines come from different studies, so protocols differ.

With Cc1nc(-c2ccc(OCC(C)C)c(C#N)c2)sc1C(=O)O the Tmax delay was 40.2 min (LC-MS/MS; healthy subjects, plasma; oral, 40 mg, together with: high-fat meal; baseline: fasting).
CCOc1c([C@H](C)n2nc(C)c3c(N)ncnc32)cc(Cl)c(F)c1[C@@H]1CNC(=O)C1 gave a Tmax median of 30 min (patients, monotherapy; oral, 30 mg once daily, cycle 1 day 1).
The tmax (median) of O=C(Nc1cnccc1Cl)N1CCN(Cc2ccc3c(c2)OC(F)(F)O3)CC1 is reported as 105 min (healthy young men, plasma; oral, 10 mg once daily, day 1).
For C=CC(=O)NC1CCN(c2ncc3ncnc(Nc4ccc(Oc5ccc6c(c5)ncn6C)c(C)c4)c3n2)CC1, the tmax was 14 min (item: total radioactivity; healthy male volunteers, plasma; intravenous infusion, 100 µg, 15 min infusion, 14C microtracer, median).
With C[C@@H](N)C1CCN(S(=O)(=O)c2cccc3cnccc23)CC1 the tmax was 45 min (healthy volunteers, fasted, plasma; oral, 25 mg).
The Tmax of CCCCC[C@H](O)CC[C@@H]1[C@H]2Cc3cccc(OCC(=O)O)c3C[C@H]2C[C@H]1O is reported as 9 min (LC-MS/MS; Japanese PAH patients, female, plasma; inhaled, 54 µg, mean).
The Tmax of C[C@H]1CN(C(=O)CC#N)[C@]12CCN(c1ncnc3[nH]ccc13)C2 is reported as 60 min (healthy Japanese males, plasma; oral, 25 mg single dose).
For CN(CCC(=O)O)C(=O)c1ccc2c(c1)CC[C@@H]1[C@@H]2CC[C@]2(C)C(c3cncc(F)c3)=CC[C@@H]12, the Tmax was 180 min (postmenopausal women, plasma; 90 mg once daily multiple dose, day 14, median).
CO[C@H]1CC[C@H](N2C(=O)CNc3ncc(-c4ccc(C(C)(C)O)nc4)nc32)CC1 has a Tmax of 120 min (patients, plasma; oral, 15 mg, day 15).
For C[C@@](Cc1ccc(O)c(O)c1)(NN)C(=O)O, the Tmax was 120 min (Parkinson's disease patients, plasma; oral, low levodopa Cmax subgroup (<9 µmol/L), median).
O=C([O-])CCCCCCCNC(=O)c1ccccc1O.[Na+] has a tmax of 30 min (healthy postmenopausal women; oral, 300 mg, median, together with: oral contraceptive plus oral semaglutide).

A few entries again:
With C[C@@H](N)C1CCN(S(=O)(=O)c2cccc3cnccc23)CC1 the tmax was 45 min (healthy volunteers, fasted, plasma; oral, 25 mg).
